Measured values of several laboratories.
Each line is one published result; not all experiments were run side by side.
ABCB1: ATP-dependent translocase ABCB1 (ABCB1, Homo sapiens, UniProt P08183)
Sequence of UniProt P08183 (whole entry, looked up): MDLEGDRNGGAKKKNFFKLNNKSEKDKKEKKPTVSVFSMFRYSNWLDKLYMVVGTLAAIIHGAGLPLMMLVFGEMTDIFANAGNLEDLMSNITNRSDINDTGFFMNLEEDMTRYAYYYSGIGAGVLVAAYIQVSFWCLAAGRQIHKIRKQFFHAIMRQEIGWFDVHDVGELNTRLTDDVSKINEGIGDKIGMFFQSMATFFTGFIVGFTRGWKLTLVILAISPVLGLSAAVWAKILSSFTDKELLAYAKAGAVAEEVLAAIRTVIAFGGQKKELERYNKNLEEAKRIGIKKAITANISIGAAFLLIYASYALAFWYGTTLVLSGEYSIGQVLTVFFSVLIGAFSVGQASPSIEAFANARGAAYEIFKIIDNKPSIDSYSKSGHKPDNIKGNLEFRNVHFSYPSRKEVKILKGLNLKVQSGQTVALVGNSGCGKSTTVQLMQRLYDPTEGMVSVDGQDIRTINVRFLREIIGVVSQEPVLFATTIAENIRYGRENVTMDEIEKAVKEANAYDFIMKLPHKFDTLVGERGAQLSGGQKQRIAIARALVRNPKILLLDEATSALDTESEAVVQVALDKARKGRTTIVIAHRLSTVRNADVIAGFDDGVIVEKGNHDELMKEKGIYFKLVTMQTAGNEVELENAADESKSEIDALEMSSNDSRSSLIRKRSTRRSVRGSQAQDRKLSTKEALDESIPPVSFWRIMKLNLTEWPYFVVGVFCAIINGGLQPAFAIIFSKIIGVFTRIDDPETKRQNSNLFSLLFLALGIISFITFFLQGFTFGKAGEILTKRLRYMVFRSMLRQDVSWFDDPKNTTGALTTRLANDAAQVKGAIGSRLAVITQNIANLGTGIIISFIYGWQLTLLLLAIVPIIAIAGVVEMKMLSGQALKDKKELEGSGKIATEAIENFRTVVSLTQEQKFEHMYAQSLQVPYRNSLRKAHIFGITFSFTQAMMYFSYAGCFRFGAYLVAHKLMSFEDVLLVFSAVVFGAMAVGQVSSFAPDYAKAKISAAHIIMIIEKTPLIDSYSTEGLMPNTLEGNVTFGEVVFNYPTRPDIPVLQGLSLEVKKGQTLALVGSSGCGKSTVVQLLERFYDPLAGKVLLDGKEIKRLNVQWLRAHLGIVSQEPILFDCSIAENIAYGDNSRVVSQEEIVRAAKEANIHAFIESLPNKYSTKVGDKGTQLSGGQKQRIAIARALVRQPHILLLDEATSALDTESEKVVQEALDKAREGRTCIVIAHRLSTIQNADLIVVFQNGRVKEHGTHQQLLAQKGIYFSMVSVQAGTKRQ

Structure (SMILES) | tested on | assay | test system | conditions | how to read | measurement | value
CN1CC[C@]23c4c5ccc(O[C@@H]6O[C@H](C(=O)O)[C@@H](O)[C@H](O)[C@H]6O)c4O[C@H]2[C@@H](O)C=C[C@H]3[C@H]1C5 | – | – | rat, whole blood | 10 nM, 4 freeze-thaw cycles | – | stability bias | -10.5%
O=C(NCc1cccnc1)Nc1ccc([N+](=O)[O-])cc1 | mouse DRG neurons | neurite degeneration | – | 50 µM, 24 h | relative to: vehicle | degeneration index difference | 50.6
COc1ccc2cc1Oc1ccc(cc1)C[C@H]1c3cc(c(OC)cc3CCN1C)Oc1c(OC)c(OC)cc3c1[C@H](C2)N(C)CC3 | ABCB1 | transport, inhibitor | – | 10 µM, added: NMN | – | inhibition | 90.2%
COc1cccc(-c2n[nH]c(SCc3ccccn3)n2)c1OC | Salmonella typhimurium | Ames test, plate incorporation | TA1535 | 0.063 mg/plate, without S9 | – | revertant colonies per plate | 20
Oc1cc2c(cc1O)[C@H]1c3ccccc3CN[C@@H]1CC2 (racemic) | African green monkey cells | – | – | 5 days | – | CC50 | 18.6 µM
CC(C)CC(=O)OC[C@H]1O[C@@](C#N)(c2ccc3c(N)ncnn23)[C@H](O)[C@@H]1O | ABCB1 | basolateral to apical transport | Caco-2 | 90 µM, 2 h, added: zosuquidar 25 µM | – | recovery | 77.8%
C[C@H]1[C@H]2CC[C@H]3[C@@H]4CC=C5C[C@@H](N(C)C)CC[C@]5(C)[C@H]4CC[C@]23CN1C | African green monkey cells | – | – | 5 days | – | CC50 | 34.7 µM
CC(=O)Oc1ccc2c3c1O[C@H]1[C@@H](OC(C)=O)C=C[C@H]4[C@@H](C2)N(C)CC[C@@]341 | – | – | rat, whole blood | 10 nM, 4 months, -80 °C, long-term storage | – | stability bias | -13.8%
C[C@]1(CO)Cc2ncn(-c3ccc(C#N)c(Cl)c3)c2C(=O)O1 | – | – | human, plasma | 10 mg single dose, geometric mean | – | Cmax | 416 nM
O=C1c2c(O)c(=O)ccn2N([C@@H]2c3ccccc3SCc3c2ccc(F)c3F)[C@@H]2COCCN12 | – | – | BALB/c mouse | subcutaneous, 4 mg/kg q24h | – | Cmax | 167 ng/mL
Cc1cc(C(=O)NC(C)(C)COc2cccc3c2C(N)=NS(=O)(=O)N3)cc(C)n1 | Escherichia coli | Ames test, confirmatory | WP2 uvrA | 1000 µg/plate, added: rat liver S9 | relative to: solvent control | revertant ratio | 1.1
CC(=O)c1ccc2c(c1)N(CCCN1CCC(CCO)CC1)c1ccccc1S2 | African green monkey cells | – | – | 5 days | – | CC50 | 12.2 µM
O=c1ccc2ccccc2o1 | NHEK | ER stress, measured: ATF4 | – | concentration not given, 24 h | – | chance response | 0.02%
CC(C)(C)c1cc(C(C)(C)C)c(NC(=O)c2c[nH]c3ccccc3c2=O)cc1O | African green monkey cells | – | – | 5 days | – | CC50 | 4.62 µM
CO[C@H]1/C=C/O[C@@]2(C)Oc3c(C)c(O)c4c(O)c(c(/C=N/N5CCN(C6CCCC6)CC5)c(O)c4c3C2=O)NC(=O)/C(C)=C\C=C\[C@H](C)[C@H](O)[C@@H](C)[C@@H](O)[C@@H](C)[C@H](OC(C)=O)[C@@H]1C | African green monkey cells | – | – | – | – | CC50 | 142 µM
CSc1ccc2c(c1)C(N1CCN(C)CC1)Cc1ccccc1S2 (centres unmarked) | African green monkey cells | – | – | 5 days | – | CC50 | 7 µM
CN1CC[C@]23c4c5ccc(O)c4O[C@H]2[C@@H](O[C@@H]2O[C@H](C(=O)O)[C@@H](O)[C@H](O)[C@H]2O)C=C[C@H]3[C@H]1C5 | – | – | rat, whole blood | 10 nM, 4 months, -80 °C, long-term storage | – | stability bias | -11.8%
COc1cc2c(Oc3ccc4[nH]c(C)cc4c3F)ccnc2cc1OCC1(N)CC1 | – | measured: grade 3 weight loss | paediatric high-risk refractory sarcoma | 8 mg | – | incidence of adverse event | 0%
COC(=O)[C@H]1[C@@H](OC(=O)c2ccccc2)C[C@@H]2CC[C@H]1N2C | – | – | rat, whole blood | 1000 nM, 4 freeze-thaw cycles | – | stability bias | -0.16%
CO[C@H]1C[C@@H]2CC[C@@H](C)[C@@](O)(O2)C(=O)C(=O)N2CCCC[C@H]2C(=O)O[C@H]([C@H](C)C[C@@H]2CC[C@@H](OC(=O)NCCOCCOCCOCCOCCOCCOCCOCCOCCC(=O)N3CCc4cc(Cn5nc(-c6ccc7oc(N)nc7c6)c6c(N)ncnc65)ccc4C3)[C@H](OC)C2)C[C@@H](O)[C@H](C)/C=C(\C)[C@@H](O)[C@@H](OC)C(=O)[C@H](C)C[C@H](C)/C=C/C=C/C=C/1C | – | phase 1 dose escalation, measured: decreased appetite | advanced solid tumour patients | intravenous, 16 mg weekly, any grade | – | TRAE incidence | 25%
CNCc1ccc(-c2cc(-c3nc(-c4ccc(S(=O)(=O)C(C)C)cc4)cnc3N)on2)cc1 | African green monkey cells | – | – | 5 days | – | CC50 | 10.2 µM
COC(=O)[C@@H]1[C@H]2CC[C@@H](C[C@@H]1O)N2C | – | – | rat, whole blood | 1000 nM, 4 freeze-thaw cycles | – | stability bias | 3.76%
COc1cc2c(Oc3ccc4[nH]c(C)cc4c3F)ccnc2cc1OCC1(N)CC1 | African green monkey cells | – | – | 5 days | – | CC50 | 5.25 µM
CN1CC[C@@H](c2c(O)cc(O)c3c(=O)cc(-c4ccc(C(F)(F)F)cc4Cl)oc23)[C@@H]1CO | – | measured: Sepsis | AML | oral, 200 mg, intermittent dosing | – | patients with adverse event | 20%
CCOC(=O)[C@H]1O[C@@H]1C(=O)N[C@@H](CC(C)C)C(=O)NCCC(C)C | African green monkey cells | – | – | 5 days | – | CC50 | > 100 µM
CN1[C@H]2CC[C@@H]1[C@@H](C(=O)O)[C@@H](OC(=O)c1ccccc1)C2 | – | – | rat, whole blood | 1000 nM, 4 freeze-thaw cycles | – | stability bias | 7.04%

For quick reference, copied from above:
Structure (SMILES) | tested on | assay | test system | conditions | how to read | measurement | value
COC(=O)[C@H]1[C@@H](OC(=O)c2ccccc2)C[C@@H]2CC[C@H]1N2C | – | – | rat, whole blood | 1000 nM, 4 freeze-thaw cycles | – | stability bias | -0.16%
CO[C@H]1C[C@@H]2CC[C@@H](C)[C@@](O)(O2)C(=O)C(=O)N2CCCC[C@H]2C(=O)O[C@H]([C@H](C)C[C@@H]2CC[C@@H](OC(=O)NCCOCCOCCOCCOCCOCCOCCOCCOCCC(=O)N3CCc4cc(Cn5nc(-c6ccc7oc(N)nc7c6)c6c(N)ncnc65)ccc4C3)[C@H](OC)C2)C[C@@H](O)[C@H](C)/C=C(\C)[C@@H](O)[C@@H](OC)C(=O)[C@H](C)C[C@H](C)/C=C/C=C/C=C/1C | – | phase 1 dose escalation, measured: decreased appetite | advanced solid tumour patients | intravenous, 16 mg weekly, any grade | – | TRAE incidence | 25%
CNCc1ccc(-c2cc(-c3nc(-c4ccc(S(=O)(=O)C(C)C)cc4)cnc3N)on2)cc1 | African green monkey cells | – | – | 5 days | – | CC50 | 10.2 µM
